# Assay results collected from several papers.
# Protocols differ between the studies behind these lines. Values joined by “and” are separate records of one study, mostly repeats; a detail may differ. ± gives the spread as reported.
SMILES,target or system,assay,system,conditions,how to read,quantity,result
CC[C@H](C)[C@H](NC(=O)[C@H](Cc1ccc(O)cc1)NC(=O)[C@@H](NC(=O)[C@H](CCCNC(=N)N)NC(=O)[C@@H](N)CC(=O)O)C(C)C)C(=O)N[C@@H](Cc1c[nH]cn1)C(=O)N1CCC[C@H]1C(=O)O,,LC-MS/MS,"Beagle dog both sexes, plasma","subcutaneous, 10 mg/kg/day, day 0, median noncompartmental",,Cmax,1100 ng/mL
C=C/C=C/C[C@@H](C)[C@@H](O)[C@H]1C(=O)N[C@@H](CC)C(=O)N(C)CC(=O)N(C)[C@@H](CC(C)C)C(=O)N[C@@H](C(C)C)C(=O)N(C)[C@@H](CC(C)C)C(=O)N[C@@H](C)C(=O)N[C@H](C)C(=O)N(C)[C@@H](CC(C)C)C(=O)N(C)[C@@H](CC(C)C)C(=O)N(C)[C@@H](C(C)C)C(=O)N1C,,,"Wistar Kyoto rat, male, plasma","ip, 0.5 mg/kg/day, day 18",,plasma Mg2+,0.8 ± 0.04 mmol/L
CN(C)C(=O)c1cncc(-c2cnc3[nH]cc(-c4cc(OS(=O)(=O)F)ccc4C#N)c3c2)c1,,HPLC,acetonitrile/water/DMSO,"50 µM, 37 °C, DIPEA 20 eq, added: N-α-acetyl-lysine",,reactivity half-life,> 24 h
CC(C)[C@@H]1NC(=O)CNC(=O)[C@H](CC(N)=O)NC(=O)[C@H](CCCNC(=N)N)NC(=O)[C@H](Cc2ccc(O)cc2)NC(=O)[C@H](C(C)C)NC(=O)[C@@H](NC(=O)[C@@H](NC(=O)[C@H](CC(N)=O)NC(=O)[C@H](Cc2c[nH]c3ccccc23)NC(=O)[C@H](C)NC(=O)[C@H](Cc2ccccc2)NC(=O)CNC(=O)[C@H](CCCCN)NC(=O)[C@H](Cc2ccccc2)NC(=O)[C@H](Cc2ccccc2)NC(=O)[C@H](CCCCN)NC(=O)OCC2c3ccccc3-c3ccccc32)C(C)C)CSSC[C@@H](C(=O)N[C@@H](Cc2c[nH]cn2)C(=O)N[C@@H](CCCNC(=N)N)C(=O)N[C@@H](CCCNC(=N)N)C(=O)N[C@@H](C)C(=O)N[C@@H](CC(N)=O)C(N)=O)NC(=O)[C@H](C(C)C)NC(=O)[C@H](CCCNC(=N)N)NC1=O,,,"ICR mouse, blood","intramammary, 5 mg/kg, day 5, 3 d dosing",,AST/ALT ratio,0.55 ± 0.03
N=C(N)NCCC[C@H](NC(=O)[C@H](CCCNC(=N)N)NC(=O)[C@H](CCCNC(=N)N)NC(=O)[C@H](CCC(N)=O)NC(=O)[C@H](CCCNC(=N)N)NC(=O)[C@H](CCCNC(=N)N)NC(=O)[C@H](CCCCN)NC(=O)[C@H](CCCCN)NC(=O)[C@H](CCCNC(=N)N)NC(=O)CNC(=O)[C@H](Cc1ccc(O)cc1)NC(=O)[C@H](Cc1ccccc1)NC(=O)[C@H](Cc1ccccc1)NC(=O)[C@H](Cc1ccccc1)NC(=O)Cc1ccc2ccccc2c1)C(=O)O,,,C57BL/6 mice,"intraperitoneal, 5 mg/kg, 24 h",direction not given,health score,5
Cc1ccc(OCCN(C)C)cc1C(=O)N[C@H](C)c1cc(-c2cnn(CC(C)(C)O)c2)nc2ccccc12,Vero E6,,,15.62 µM,,viability,125% and 100%
Cc1ccccc1-c1ccc(-c2nc(-c3ccc(CN(C)CCCC(=O)O)c([18F])c3)no2)cc1C(F)(F)F,,,"rat, liver",2 h,,tracer uptake,2.15 %ID/g
CC[C@H](C)[C@H](NC(=O)[C@H](CCCCN)NC(=O)CNC(=O)[C@H](CC(C)C)NC(=O)[C@H](Cc1ccccc1)NC(=O)[C@H](CCCCN)NC(=O)[C@H](CO)NC(=O)[C@H](Cc1ccccc1)NC(=O)[C@H](Cc1c[nH]c2ccccc12)NC(=O)[C@H](CCC(N)=O)NC(=O)[C@@H](NC(=O)[C@H](Cc1ccccc1)NC(=O)CCCCCNC(=O)CN1CCN(CC(=O)O)CCN(CC(=O)O)CCN(CC(=O)O)CC1)C(C)C)C(=O)N[C@@H](CCC(=O)O)C(=O)N1CCC[C@H]1C(=O)N[C@H](CC(=O)O)C(=O)N[C@H](C(=O)N[C@@H](CO)C(=O)N[C@@H](CCC(N)=O)C(=O)N[C@H](C(=O)N[C@@H](CCC(N)=O)C(=O)N[C@@H](CC(=O)O)C(=O)N1CCC[C@H]1C(=O)N[C@@H](CC(N)=O)C(=O)N[C@@H](CC(=O)O)C(=O)N[C@@H](CCC(N)=O)C(=O)N[C@@H](Cc1ccc(O)cc1)C(=O)N[C@@H](CCC(=O)O)C(=O)N1CCC[C@H]1C(=O)N[C@@H](Cc1ccccc1)C(=O)O)C(C)C)C(C)C [copper-64 labelled],,,"female mice, EMT6 tumour-bearing, kidneys","2 h, uncleavable control tracer, checkpoint inhibitor-treated",,tissue uptake,41.7 ± 5.17 %ID/g
CC(C)NCCCn1c(Sc2cc3c(cc2I)OCO3)nc2c(N)ncnc21,,LC-MS/MS,"human, left lymph node lesion biopsy","140 mg/m^2, 24 h post-injection",,tumour concentration,2.8 µM
COc1ccc([C@@H]2CC(=O)c3c(O)cc(O[C@@H]4O[C@H](CO)[C@@H](O)[C@H](O)[C@H]4O[C@@H]4O[C@@H](C)[C@H](O)[C@@H](O)[C@H]4O)cc3O2)cc1O,,,"male Sprague-Dawley rats, obese, urine","oral, 100 mg/kg, 48 h",,cumulative urinary excretion,71.2 ± 12.3 ng
O=C1NC2(CC2)COc2ncc(F)cc2[C@H]2COCCN2c2ccn3ncc1c3n2,,,"Sprague-Dawley rat, female, ovaries","oral, 20 mg/kg/day, 4 weeks dosing, end of recovery",,organ-to-body weight ratio,0.036 ± 0.004%
Cc1ccc(OCCN(C)C)cc1C(=O)N[C@H](C)c1cc(-c2ccc(C(F)(F)F)s2)nc2ccccc12,Vero E6,,,7.812 µM,,viability,126% and 122%
CN1Cc2cc(Cl)ccc2-n2c(nnc2C2CCN(c3cccc([18F])n3)CC2)C1,,,"C57BL/6 mouse male, heart","intravenous, dose not given, 5 min, added: blocking agent 10 mg/kg",,tissue uptake,7.48 ± 2.23 %ID/g
CC(C)C[C@H](NC(=O)[C@H](Cc1ccccc1)NC(=O)CNC(=O)CNC(=O)[C@@H](N)Cc1ccc(O)cc1)C(=O)N[C@@H](CSCB(O)O)C(N)=O,,RP-HPLC,PBS,"concentration not given, 24 h, pH 7.4, added: GSH 1 mM",,peptide remaining intact,76%
CCc1nnc(-c2c(OC)cc(-c3cnc4cc(-c5cnn(C)c5)ccn34)cc2OC)o1,,metabolic stability,"rat, liver microsomes",,,half-life,> 2.48 h

# A few entries again:
SMILES,target or system,assay,system,conditions,how to read,quantity,result
CC(C)C[C@H](NC(=O)[C@H](Cc1ccccc1)NC(=O)CNC(=O)CNC(=O)[C@@H](N)Cc1ccc(O)cc1)C(=O)N[C@@H](CSCB(O)O)C(N)=O,,RP-HPLC,PBS,"concentration not given, 24 h, pH 7.4, added: GSH 1 mM",,peptide remaining intact,76%
CCc1nnc(-c2c(OC)cc(-c3cnc4cc(-c5cnn(C)c5)ccn34)cc2OC)o1,,metabolic stability,"rat, liver microsomes",,,half-life,> 2.48 h
